Experimental data of several laboratories.
± marks the error that the study gave.

| Compound | tested on | test | system | conditions | how to read | endpoint | result |
| --- | --- | --- | --- | --- | --- | --- | --- |
| COc1ccc2c(c1)CN(C(=O)CCN1CCC(Cc3ccccc3)CC1)CC[S@@+]2[O-] | – | telemetry | conscious male beagle dogs | intravenous, 4 mg/kg, 2 h | – | QT interval | 244 ± 17 ms |
| CCO[C@H]1CCN(Cc2c(OC)cc(C)c3[nH]ccc23)[C@H](c2ccc(C(=O)O)cc2)C1 | – | – | PNH patients, active haemolysis | oral, 200 mg, 8 weeks, treatment | – | incidence musculoskeletal chest pain | 0% |
| CCCCc1ccc(-c2ccc(C#N)cc2)cc1 | – | – | Sprague-Dawley rat, female, fetus | 5000 ng/mL in perfusate, 50 (unit not given), high dose, mixture of 21 LCMs | – | fetal accumulation | 1.22 ± 1.02 ng/g |
| CCCCCNC(=O)N1CCC(CN(Cc2ccc(Cl)cc2)Cc2ccc([N+](=O)[O-])s2)C1 (stereo not drawn) | – | – | C57BL/6 mice | 100 mg/kg twice daily, 7 days | – | mean corpuscular haemoglobin | 12.7 ± 0.6 pg |
| C[Si](C)(C)O[Si](C)(C)C | – | – | – | concentration not given, temperature rise 30 °C | – | change in log KOA | -0.6 log units |
| N=C1CCCN1Cc1nc(O)nc(O)c1Cl | THP-1 | pyroptotic LDH release | – | 2 µM, 40 min, added: LPS then nigericin | – | inhibition | 34.3% |
| C=CCN1CC(=O)N2[C@@H](Cc3ccc(O)cc3F)C(=O)N(Cc3cccc(N4CC(N5CCN(CC)CC5)C4)n3)C[C@@H]2N1C(=O)NCc1ccccc1 | – | refers to: AST increased | human advanced solid tumours | concentration not given, dose escalation any grade | – | treatment-related adverse events | 13.9% |
| COc1cc(C(=O)NC2CCCNC2)cc(OC)c1OC (stereo not drawn) | THP-1 | pyroptotic LDH release | – | 2 µM, 40 min, added: LPS then nigericin | – | inhibition | 43.2% |
| COc1cc2c3c(n(CCCN4CCOCC4)c(=O)c2cc1OC)-c1cc2c(cc1C3=O)OCO2 | – | – | rat | intravenous, 48-60 mg/m^2, 5 days once daily | baseline: control | body weight loss | 13 to 20% |
| O=C1NCCc2nc(OCc3cccc(F)c3)ccc21 | – | refers to: loss of Righting | Sprague-Dawley rat male | oral, 100 mg/kg, 0 min | baseline: baseline, direction not given | Irwin test score | 0 |
| O=C(O)c1cc(O)c2c(c1)C(=O)c1cccc(O)c1C2=O | HK-2 co-cultured with HepaRG | MTT | – | 16.67 µM, 24 h | baseline: untreated control | viability | 94.9 ± 20.9% |
| CN(CCCNC(=O)c1cccc(C(=O)O)c1)CCCNC(=O)c1cc(NC(=O)c2cc(NC(=O)c3cc(NC(=O)c4cc(NC(=O)C[C@H](CNC(=O)c5cc(NC(=O)c6cc(NC(=O)c7nc(NC(=O)c8nccn8C)cn7C)cn6C)cn5C)NC(=O)c5ccccc5)cn4C)cn3C)cn2C)cn1C | – | dynamic light scattering | 0.1% DMSO in PBS | 25 °C | – | critical aggregation concentration | 1 µM |
| Cc1ccc2c(c1)nc(/C=C/c1cccc3cccnc13)n2-c1cccc(OCCCN2CCN(C)CC2)c1 | – | – | male Sprague-Dawley rat | oral, 10 mg/kg, 2 h | – | plasma concentration | 267 ± 63.4 nM |
| O=C(OC(C(F)(F)F)C(F)(F)F)N1CCN(Cc2cccc(Oc3ccccc3)c2)CC1 | – | PET blocking study | rhesus monkey, brain Pons | 0.01 mg/kg, compound pretreatment, added: [18F]T-401 tracer | – | Ktrans | 0.0043 min⁻¹ |
| CCc1cc(C(=O)NC)c2nccc(N3CCc4c(cc(Cn5ccnc5)cc4-c4cn(C)nc4C(F)(F)F)C3=O)c2c1 | – | – | Sprague Dawley rat | oral, 50 mg/kg once daily, day 4, 7-day toxicology study | baseline: day 1 | body weight change | 9.7% |
| CC(=O)N[C@@H](CC(N)=O)C(=O)N[C@@H](CCCNC(=N)N)C(=O)N[C@@H](CC(C)C)C(=O)N[C@H]1CSSC[C@@H](C(=O)N[C@H](C(N)=O)[C@@H](C)O)NC(=O)[C@H](CCCNC(=N)N)NC(=O)[C@H](Cc2c[nH]cn2)NC(=O)[C@H](Cc2cccc3ccccc23)NC(=O)CNC(=O)[C@H](Cc2c[nH]c3ccccc23)NC(=O)[C@H](CC(=O)O)NC(=O)[C@H](CCC(N)=O)NC(=O)[C@H](Cc2c[nH]c3ccccc23)NC(=O)[C@H](C(C)C)NC1=O | – | isocratic RP-HPLC, C18 | 32% acetonitrile, phosphate pH 7.4, 1% TFA | 25 °C | – | retention factor | 2.689 ± 0.007 |
| COc1c(O[C@@H]2O[C@H](CO)[C@@H](O)[C@H](O)[C@H]2O)c(C)cc2c1C(=O)c1c(O)cccc1C2=O | HK-2 co-cultured with HepaRG | MTT | – | 33.33 µM, 24 h | baseline: untreated control | cell viability | 76 ± 6.81% |
| OC[C@H]1O[C@@H](c2ccc(Cl)c(Cc3ccc(O[C@H]4CCOC4)cc3)c2)[C@H](O)[C@@H](O)[C@@H]1O | – | – | Japanese type 1 diabetes patients, blood | 2.5 mg, day 28 | baseline: baseline | change in HDL cholesterol | 3.31 mg/dL |
| O=C(Nc1nc2cccc(-c3ccc(CN4CCS(=O)(=O)CC4)cc3)n2n1)C1CC1 | – | refers to: hypotension | human rheumatoid arthritis patients | oral, 30 mg once daily, 4 weeks, regardless of relatedness | – | treatment-emergent adverse events | 0% |
| O=C(O)CCC(=O)O.[2H]C([2H])([2H])Oc1cc(C)c2[nH]ccc2c1CN1CC[C@@H](C2CC2)C[C@H]1c1ccc(C(=O)O)cc1 | – | multiple ascending dose | healthy Chinese subjects | 300 mg once daily | – | subjects with elevated triglycerides TEAE | 12.5% |
| CC(C)=CCC/C(C)=C/CC/C(C)=C/CC[C@@](C)(O)CCC1=C(C)C(=O)C(C)=C(C)C1=O | – | – | healthy human, plasma | oral, dose not given, added: itraconazole | – | median half-life | 12.3 h |

A few entries again:
| Compound | tested on | test | system | conditions | how to read | endpoint | result |
| --- | --- | --- | --- | --- | --- | --- | --- |
| CCCCCNC(=O)N1CCC(CN(Cc2ccc(Cl)cc2)Cc2ccc([N+](=O)[O-])s2)C1 (stereo not drawn) | – | – | C57BL/6 mice | 100 mg/kg twice daily, 7 days | – | mean corpuscular haemoglobin | 12.7 ± 0.6 pg |
| C[Si](C)(C)O[Si](C)(C)C | – | – | – | concentration not given, temperature rise 30 °C | – | change in log KOA | -0.6 log units |
